# Measured values gathered from unrelated publications.
# Numbered parts are unrelated; each lists some results of a single study.

# Study 1 — technique: RNA Bind-n-Seq; molecule type: RNA; matrix: in vitro; concentration: not given; setting: RNA with constant flanks, ends assumed; baseline: input RNA pool; reading: higher = stronger binding
# Target: RING finger protein unkempt homolog, zinc fingers 1-6, GST-SBP tag (UNK, Homo sapiens, UniProt Q9C0B0, residues 30-357)
# All sequences stand within: GGGAGUUCUACAGUCCGACGAUC … CAACAGAGGAUUGAGCAUCA
# Residues (chain): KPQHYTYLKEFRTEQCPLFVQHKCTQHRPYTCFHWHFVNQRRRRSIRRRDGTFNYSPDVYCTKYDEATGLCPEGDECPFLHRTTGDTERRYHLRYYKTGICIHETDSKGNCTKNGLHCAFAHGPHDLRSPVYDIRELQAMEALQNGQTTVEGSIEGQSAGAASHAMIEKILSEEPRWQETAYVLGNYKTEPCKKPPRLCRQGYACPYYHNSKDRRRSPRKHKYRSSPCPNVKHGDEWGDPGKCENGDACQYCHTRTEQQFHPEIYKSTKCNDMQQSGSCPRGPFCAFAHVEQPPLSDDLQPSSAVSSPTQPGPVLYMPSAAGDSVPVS
Sequence,bound/input enrichment [ratio]
GUUUUCCAUCUUUAUCAAUGCAUUCGUGUUGGUCUUGAUGUAUACUACCUGUUCCCCGUGUUAUUUUUACACGUCAUCUCACAGUAAUAAUAUCAGCAAUUCUUGCUGCAUUGAACAUAU,0.191
UAUAUAUAUAUAUAUCAAAAAGCCAAAAUCUUUAUUUUUAUGCACCUAGAAUAUUUUAAACCGUUCUCAAUAUUAAAAAGUAUGAGUUGUAAGUAAUCUUGCCAAAAGUGAGCGGGUUAG,12.6
CGGUGUGUUGUCUGUUGUUAAUUCCAUUCCCUCCGUGUGUUUCCUUAAAAGCUUCUGUCUAUCCGUGGCUUCCUGUGCUCUGGGCACUUAACUCCUAAUCUUUCAAACACCGGGAUGCAA,0.591
GCUAUGGACACAGAGUUCCCAGGUGUUGUUGUACGGCCGAUCGGUGAAUUUCGAAGCUCCACCGAUUACCAGUAUCAGCUUCUGCGGUGCAAUGUUGAUCUUCUUAAAAUCAUCCAGCUG,0.0561
UGGUAUGGCCUCGGGCAGACCUAUGAAAUCCUUAAGAUGCCAUUUUACUGCCUUUAUUAUUACCGACGGGCCCACCAGCUUCGACCCAAUGAUUCUCGCAUGCUGGUUGCUUUAGGAGAA,0.193
GCUCCUAUUAAUGAAGUAGCACGAUUUAAUCUGAUGCAGGUAGGCCGCCUUUUGCAGCAGUCCGCAAUGACUGGCUCUGAAGAGGGAGAUCCCCGAACAAAGAGCAGCCUUGGAAAGUUU,0.351
GCCUUAGCUGCAUCUUGGACCUCAAGACAAGUAGGAGAACGGACGUUGACCGGUACGGUAACCGACAGUGGAGAUGGUGUCACUCAUGUCAUUCCUGUGGCUGAAGGGUAUGUGAUUGGC,0.178
UUUCUAUUGCAGCAGACCAUGCUACGAGUGAAGGAUCCUAAGAAGUCACUGGAUUUUUAUACCCGAGUUCUUGGAAUGACGCUAAUCCAAAAAUGUGAUUUUCCCAUUAUGAAGUUUUCA,0.0857
CAUAUUAAAUAUGAUCCAGAAAUUAUUGGUCCCAGAGAUAUUAUCCAUACCAUCGGAAGCUCCGGCUUUGAAGCUUCUUUGGUCAAGAAAGAUCGAUCAGCCAACCACUUAGAUCAUAAA,0.35
GGUCCACAUACUCCCCAUCGGGUGCCUGGACCUUGGGGUUCCCCCGAACCUUUUCUGCUCUACCGGCCAGCUCCACCAUCCUAUGGGAGGGGAGGGGAGGUCCGAGGAUCCUUGUACAGA,0.105
UUUUAUGCACCCACCGCAGCUGUUGAAAGCAUGGUGGAGCACUUGUCUCGAGAUACCGAUGUGAUCCGAGGGAAUAUUGUCAAACACCCUCUGACCCAGGAACUAAAAGAAUGUGAAGGG,0.0942

# Study 2 — technique: RNA Bind-n-Seq; molecule type: RNA; matrix: in vitro; concentration: 365 nM; baseline: no-protein control; reading: higher = stronger binding
# Target: RNA binding protein fox-1 homolog 2, RRM domain, GST-SBP tag (RBFOX2, Homo sapiens, UniProt O43251-10, residues 100-194)
# Setting: natural RNA segment, single round, ends assumed
# All sequences stand within: GGGAGUUCUACAGUCCGACGAUC … UGGAAUUCUCGGGUGCCAA
# Construct (chain): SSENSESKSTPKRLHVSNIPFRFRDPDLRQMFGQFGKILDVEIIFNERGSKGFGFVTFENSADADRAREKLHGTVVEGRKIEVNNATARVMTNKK
Sequence,RBNS enrichment (R)
UUGGGUCUCCUCAGGCCCCCGGGCCCACCUGCCCUGAAGGCAGCAGCAAGUUUCUUCUGCAGCCCUGCCGUGCUUGAGGAAGGGCCUGAGGAGGAAGGGACACUCACUCU,0.438
UUCCCCUGAGCAUCCUCUAGAUGCUGCCCCAAGGAGUUGCUGCAGUUCUGGAGCCUCAUCUGGCUGGGAUCUCCAAGGGGCCUCCUGGAUUCAGUCCCCACUGGCCCUGA,0.221
GUUGCCCUCCUACCCAAUUGUCAUGAUUGUCCUUAGUACCCUAGGCCUAGAUUCUGAGAUCUUCCCAUUCUAGGCCUACAAGCACUACUUGCUGUAGCUGAGACUUGUCU,0.289
GUCAGGUAACAACCAGAUGGCUUCACUGAAACCUGCUUUUGUAAAUUACUUUUUUUUACUGUUGCUGGAAGUGUCCCACCUGCUGCUCAUAAUAAAUGCAGAUGUAUAGC,0.324
CACCCUGCCUGAUGAGCCCUUCACUUUGUCCUCUUCCUGCCUCCUGGGCUCUGCCUUAAUCUCCUGGACUCCGGAGGACUGAGCCCCCACCGGAGCUGGCUGGGGCUUGG,0.885
CUCACAUUGCAGACACCAUUUUGGGCUCCCUGAUUAAAUGCAGAUCAGUUCUGCACACCUCCAGGGGUGGAUCCAGCUGUAAGGCCAUACCUAUAUCUUCCAGAUGUCCU,0.302
CUGCCUGAUUCACCCUUAUUGGCAUGUGAGCCAUUGGGAUGCCAUUGAGAAUCAUGAUGAACUUUGGGUGUGUCUGUCCUGUGAGGAAGCGUGUCUGGAAAGGGGUUCAU,1.59
UGAAAAAUGCCUUAGUGAUAAGCUUUCAUGGCAGAGCACGUCAAGAUAAAUGGGUAUACUGGAAUCCGAUGCCGUUUCUACAGUAAAGUGCAAUCUUCGUUGUUUUUGUA,0.413
GCAGUGUCUAAACCCCCGGAGCCAUCUUGCUGCCGACACCCUGCUUUCCCCUCGCCCUAGGGCUCCCUUGCCGCCCUCCUGCAGUAUUUAUGGCCUCGUCCUCCCCACCU,0.651
GACCUCGACGUUGCCUUUAGACUACAGUUGUGUUAGCCUCUUGCGUAUUGGCUUUUUCAGAGUCAUUAUGAGCAGAAAAAAAAAAAGUAAAACUUUGCUAAUAUUAACCC,0.334
CAAGUUCUUGUAUAAUGAAGUCAAUGCCAUCAGGCCAAGGAAAUAAAAUAAUUGCUUACCUUAAAAAUCCACUGAGUUCAGCAAUGUUGCCUUUAUUUUGUAUGUAUUAG,0.634
GUUAGACAUUAACAAACAGCAGGAAAAUGUCACAUAACCUGGAAAGACCGCACUGGAGUUGGGUGUGUUCUGAGUUUCUGUCCAGAUGUGAUUUCAGCAGUCAUGGUAUU,0.84

# Study 3 — technique: protein-binding microarray; molecule type: double-stranded DNA, one strand shown; matrix: in vitro; concentration: 2540 nM top; setting: 60-bp whole probe; with: salmon DNA 0.4 mg/ml; baseline: random background probes; reading: higher = stronger binding; all sequences stand within: GCCTAGCAC … GTCTTGATTCGCTTGACGCTGCTG
# Target: Interferon regulatory factor 3, full length, phosphomimetic (IRF3, Homo sapiens, UniProt Q14653, residues 1-427, S386D/S396D/S398D/S402D/T404D/S405D)
# Construct (chain): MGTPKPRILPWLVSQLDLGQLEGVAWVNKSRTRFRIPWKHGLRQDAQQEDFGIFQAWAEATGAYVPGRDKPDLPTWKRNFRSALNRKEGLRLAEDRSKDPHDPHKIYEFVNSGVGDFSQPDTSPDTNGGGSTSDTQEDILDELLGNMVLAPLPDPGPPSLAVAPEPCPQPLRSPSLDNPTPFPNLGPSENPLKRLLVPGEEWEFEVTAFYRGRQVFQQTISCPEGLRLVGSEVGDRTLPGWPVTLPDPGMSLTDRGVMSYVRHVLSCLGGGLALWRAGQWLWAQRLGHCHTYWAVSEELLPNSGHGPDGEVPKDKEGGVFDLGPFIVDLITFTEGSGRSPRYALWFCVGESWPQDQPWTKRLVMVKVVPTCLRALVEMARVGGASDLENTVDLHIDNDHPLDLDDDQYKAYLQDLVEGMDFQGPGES
Sequence,fitted relative affinity
GACGGAGTGGGACTGGGGACGTGCTAG,-0.836 z-score
TCATGATCCATTTTGGTACTGTGCTAG,2.91 z-score
GACGATTTTGGGTTTCGAGACGTGCTA,1.34 z-score
TTAGGTTCCGGGTATCGGTTAGTGCTA,1.97 z-score
TTAGGTCTCCGTTTCGGTTAGTGCTAG,4.88 z-score
TTAGGACTGGGGTATCGATTAGTGCTA,-0.568 z-score
TTAGGTCTCATACTGCTTTAGTGCTAG,0.478 z-score
GTATATATAATATATATTCATGTGCTA,0.361 z-score
TGGGTATTTTTTCTGAACCAGTGCTAG,1.14 z-score
CTGTCATCATCGTTCCCAGCGTGCTAG,0.305 z-score
GACGGTTTCGGTACCGGGACGTGCTAG,7.24 z-score
GACGGTATCCTAATCCTGACGTGCTAG,4.37 z-score
GACTCTTTCTGTCAGTTTTGGTGCTAG,1.65 z-score
GACGGACTGGGTCTCAGGACGTGCTAG,-0.633 z-score
GACAGTATCCTTATCCTGACGTGCTAG,5.72 z-score
CTTCCTCTTTCTCTGCTACCGTGCTAG,3.12 z-score
ACAGCTCTGCGGTTCAGATAGTGCTAG,0.0751 z-score
TTGGGTATCCTTTTCCTTTAGTGCTAG,6.47 z-score
ACACTCTTCTTTTGCTAATTGTGCTAG,1.43 z-score

# Study 4 — technique: RNA Bind-n-Seq; molecule type: RNA; matrix: in vitro; concentration: 200 nM; setting: whole 134-nt RNA, ends assumed; with: 150 mM KCl; baseline: input library; reading: higher = stronger binding
# Target: Fragile X messenger ribonucleoprotein 1, C-terminal low-complexity region (Fmr1, Mus musculus, UniProt P35922)
# All sequences stand within: GGGAGUUCUACAGUCCGACGAUC … UGGAAUUCUCGGGUGUCAAGG
Sequence,log2 enrichment
UCCUGUGCUACACAUCGUAUGUACCGAAUCGGGAAAAAGGGUUUUUUUGGGUUUUUGGGAAAGUAUUAUGUUACGCCGUUCGGAUCUGCA,-0.328
UAACUUUAGAGGAGGAUCUGAUGGAUAUGGCCGUGGACGUGGAUUUGGGGAUGGCUAUAAUGGGUAUGGAGGAGGACCUGGAGGUGGCAA,0.353
CUCAAGUCCUGUGCUACACAUCGUAUGUACCGAAUCGGGUGGGUGGGAAAGGGAAAGUAUUAUGUUACGCCGUUCGGAUCUGCACUUCCA,1.07
UGGCCCUGGUGGCAUGCGGGGAGGAAGAGGUGGCCUCAUGGAUCGUUGUGGUCCCGGUGGAAUGUUCAGAGGUGGCCGUGGUGGAGACAG,0.0576
UCCUGUGCUACACAUCGUAUGUACCGAAUCGGGAAAAAAAGGGUUUGGGAAAAAAAGGGAAAGUAUUAUGUUACGCCGUUCGGAUCUGCA,-0.419
CCUGUGCUACACAUCGUAUGUACCGAAUCGGAAAAAAAGGAAAAAAAGGGAAAAAAAGGGGAAAGUAUUAUGUUACGCCGUUCGGAUCUG,-1.09
GUCCUGUGCUACACAUCGUAUGUACCGAAUCGGGUUUUUGGGUUUGGGAAAAAAAGGGAAAGUAUUAUGUUACGCCGUUCGGAUCUGCAC,-0.45
CUCAAGUCCUGUGCUACACAUCGUAUGUACCGAAUCGGGGAGGGAGGGGAGGGGAAAGUAUUAUGUUACGCCGUUCGGAUCUGCACUUCC,1.16
AAGUCCUGUGCUACACAUCGUAUGUACCGAAUCGGGUUUGGGUUUUUUUGGGUGGGAAAGUAUUAUGUUACGCCGUUCGGAUCUGCACUU,1.02
AAGACAUUUGUUGUAUUUAUGGUUGUAACUGUACAUGCUUAUCAGGAUGAGACUGAAAGAAGGUAGGGCAAAAAUGGUUGAAUCUAUUUU,-0.202
